# Results pooled from the literature.
# Lines come from different studies, so protocols differ. ± marks the error that the study gave.
# ESR1: Estrogen receptor (ESR1, Homo sapiens, UniProt P03372)
# Chain of UniProt P03372 (whole entry, looked up): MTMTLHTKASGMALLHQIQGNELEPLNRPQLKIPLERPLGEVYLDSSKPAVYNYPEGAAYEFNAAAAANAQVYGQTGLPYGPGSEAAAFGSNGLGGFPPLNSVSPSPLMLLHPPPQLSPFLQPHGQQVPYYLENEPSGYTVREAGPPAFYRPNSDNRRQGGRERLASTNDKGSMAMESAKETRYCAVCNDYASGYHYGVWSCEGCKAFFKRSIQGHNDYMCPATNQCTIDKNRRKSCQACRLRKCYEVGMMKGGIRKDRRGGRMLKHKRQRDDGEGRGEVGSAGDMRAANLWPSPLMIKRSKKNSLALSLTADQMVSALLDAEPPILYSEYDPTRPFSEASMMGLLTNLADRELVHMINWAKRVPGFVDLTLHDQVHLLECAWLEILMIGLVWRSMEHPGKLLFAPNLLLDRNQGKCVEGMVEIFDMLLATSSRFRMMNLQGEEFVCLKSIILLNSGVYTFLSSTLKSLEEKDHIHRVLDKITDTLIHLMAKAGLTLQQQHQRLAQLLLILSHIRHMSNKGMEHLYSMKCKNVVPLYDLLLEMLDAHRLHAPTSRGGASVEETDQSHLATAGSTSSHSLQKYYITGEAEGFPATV
Compound,target,test,test system,conditions,measurement,value
C[C@@H]1Cc2c([nH]c3ccccc23)[C@@H](c2c(F)cc(/C=C/C(=O)O)cc2F)N1C12CC(C1)C2,ESR1,cell-free assay,,,IC50,0.4 nM
O=S(=O)([C@@H]1C[C@@H]2O[C@H]1C(c1ccc(O)cc1)=C2c1ccc(O)cc1)N(CC(F)(F)F)c1ccc(Cl)cc1,ESR1,"reporter gene, antagonist, luciferase",,,IC50,30 nM
Cc1ccccc1OS(=O)(=O)C1CC2OC1C(c1ccc(O)cc1)=C2c1ccc(O)cc1 (racemic),ESR1,"reporter gene, agonist, luciferase",,,EC50,220 nM
Nc1cc(-c2cc(-c3ccccc3)c(C(F)(F)F)s2)n[nH]1,ESR1,"coactivator recruitment, antagonist",,,IC50,7450 nM
CCCN1CC(COc2ccc(C3c4ccc(O)cc4CC4(CC4)N3C(=O)c3ccccc3)cc2)C1 (centres unmarked),"Estrogen receptor, with SRC3 (ESR1, Homo sapiens, UniProt P03372)",SRC3 coactivator recruitment,,"48 h, with: estradiol 1 nM",IC50,623 ± 8880 nM
COc1ccc(SCC(=O)c2ccc(O)cc2O)cc1,ESR1,"coactivator recruitment, agonist",,,EC50,1310 nM
O=S(=O)(Oc1ccccc1Br)C1CC2OC1C(c1ccc(O)cc1)=C2c1ccc(O)cc1 (racemic),ESR1,"reporter gene, agonist, luciferase",,,EC50,44 nM
O=C1c2ccc(O)cc2-c2c(-c3ccc(O)cc3)oc3cc(O)cc1c23,ESR1,"binding, fluorescence polarization",,,Kd,3.1 µM
O=S(=O)(Oc1ccc(Br)cc1)C1CC2OC1C(c1ccc(O)cc1)=C2c1ccc(O)cc1 (racemic),ESR1,"reporter gene, agonist, luciferase",,,EC50,160 nM
N#CC(=Cc1ccc(O)cc1)c1ccc(Cl)cc1Cl,ESR1,"coactivator recruitment, agonist",,,EC50,64.7 nM
CC[C@H]([C@H](CC)c1ccc(O)cc1)[C@@H](C)c1ccc(O)cc1,ESR1,"reporter gene, agonist, 3xERE luciferase reporter",HEK293T,24 h,EC50,0.0038 nM

# For quick reference, copied from above:
Compound,target,test,test system,conditions,measurement,value
COc1ccc(SCC(=O)c2ccc(O)cc2O)cc1,ESR1,"coactivator recruitment, agonist",,,EC50,1310 nM
